Experimental data of several laboratories.
Compare with care: the assays were run in different laboratories. Numbers after ± are the reported error.

Under “intracellular glucuronide concentration”, `O=C(O)C1OC(Oc2ccc3c(=O)cc(-c4ccccc4)oc3c2)C(O)C(O)C1O` (stereo not drawn) is recorded as 142 ± 22.2 µM (HeLa-UGT1A9 cells; 15 µM aglycone loading, end of excretion).
The Papp of `Cc1cc(O)cc(O)c1C(=O)c1c2c3c(c(O)cc(C)c3oc1=O)C(=O)c1c(O)cc(O)cc1-2` is reported as 0.58 to 2.91 ×10⁻⁶ cm/s (Caco-2 monolayer; 50 to 400 µM, 180 min, pH 7.4, apical to basolateral).
`CCCC[C@H](NC(=O)[C@H](CC(=O)O)NC(=O)[C@H](CC(=O)O)NC(=O)[C@H](CCC(=O)O)NC(=O)[C@H](Cc1ccc(O)cc1)NC(=O)[C@H](CC(=O)O)NC(=O)[C@H](CC(=O)O)NC(=O)[C@H](CCC(=O)O)NC(=O)[C@H](CC(C)C)NC(=O)[C@H](CCC(=O)O)NC(=O)[C@H](CCC(=O)O)NC(=O)c1ccc2c(c1)C1(OC2=O)c2ccc(O)cc2Oc2cc(O)ccc21)C(=O)N[C@@H](CCC(=O)O)C(=O)N[C@@H](CCC(=O)O)C(N)=O` gave a median half-life of 20 min (BEAS-2B single cells; intracellular degradation, CE-LIF; 1 µM, 37 °C, microinjected).
For `CC1(C)CCC2(CO)C(=C3C=CC4[C@@]5(C)CCC(O)[C@@](C)(CO)C5CC[C@@]4(C)[C@]3(C)C[C@H]2O)C1` (stereo partly drawn), the efflux ratio was 0.01 (Caco-2 monolayer; 10 µM, 3 h; relative to: Papp B-A over Papp A-B).
`CC(=O)N[C@H](C(=O)N[C@H](C(=O)N[C@@H](CCCNC(=N)N)C(=O)N1Cc2ccccc2C[C@H]1C(=O)N[C@@H](Cc1ccccc1)C(N)=O)C1CCCCC1)C(C)C` has a cytokine level of 4850 ± 5350 pg/mL (human PBMC; Bio-Plex multiplex, measured: MCP-1(MCAF); 250 µg/mL, 24 h).
`OC(Cc1cc(-c2ccc(C(O)C(F)(F)F)s2)sc1-c1ccc(-c2sc(-c3ccc(C(O)C(F)(F)F)s3)cc2CC(O)C(F)(F)F)s1)C(F)(F)F` (stereo not drawn) has a cellular uptake of 5% (primary human fetal cortical neurons; LC-MS/MS; 4 µM, 30 min; relative to: applied).
`O=C(OCc1cccc(O)c1O)c1ccc(O)c(CO)c1` — result for cytotoxicity: “not toxic” (HPMEC; 20 µM, 48 h).
With `CCC1=C(CC)C2=[N+]3C1=Cc1c(CC)c(CC)c4[n]1[Ir-3]31([C]#[N+]c3ccc(OC)cc3)([C]#[N+]c3ccc(OC)cc3)[n]3c(c(CC)c(CC)c3=CC3=[N+]1C(=C4)C(CC)=C3CC)=C2.F[B-](F)(F)F` the cellular uptake was 116 ± 20.6 µg iridium/g protein (NCI-H460; ICP-MS; 1 µM, 2 h).
`O=C(O)C1OC(Oc2c(-c3ccccc3)oc3cc(O)ccc3c2=O)C(O)C(O)C1O` (stereo not drawn) — result for “intracellular glucuronide concentration”: 1.93 ± 0.24 µM (HeLa-UGT1A9 cells; measured: 3-O-glucuronide; 0.625 µM aglycone loading, end of excretion).
`CCC1=C(CC)C2=[N+]3C1=Cc1c(CC)c(CC)c4[n]1[Ir-3]31([c]3n(C(C)C)cc[n+]3C(C)C)([c]3n(C(C)C)cc[n+]3C(C)C)[n]3c(c(CC)c(CC)c3=CC3=[N+]1C(=C4)C(CC)=C3CC)=C2.F[P-](F)(F)(F)(F)F` gave a cellular uptake of 159 ± 29.5 µg iridium/g protein (NCI-H460; ICP-MS; 1 µM, 2 h).
With `CC1(C)CCC23COC4(C=CC5C6(C)CCC(O)C(C)(CO)C6CCC5(C)C4(C)CC2O)C3C1` (stereo not drawn) the recovery was 85.5% (Caco-2 monolayer; 10 µM, 3 h, 37 °C, basolateral to apical).
The IC50 of `O=C(Nc1ccc2c(c1)CN(c1ccc(Cl)c(Cl)c1)C2=O)N1CCN(c2ccccc2)CC1` is reported as > 64 µM (primary peritoneal mouse macrophages; cytotoxicity; 5% fetal calf serum).
Under “apparent permeability ratio”, `CC(=O)NC1C(N=C(N)N)C=C(C(=O)OC(C)OC(=O)C(N)C(C)C)OC1C(O)C(O)CO` (mixture of isomers) is recorded as ~3 fold (Caco-2 monolayer; apical to basolateral; relative to: isoleucyl prodrug).
For `O=C(O)C1OC(Oc2c(-c3ccccc3O)oc3ccccc3c2=O)C(O)C(O)C1O` (stereo not drawn), “intracellular glucuronide concentration” read 8.95 ± 1.09 µM (HeLa-UGT1A9 cells; measured: 3-O-glucuronide; 0.3125 µM aglycone loading, end of excretion).
Under “cellular iridium uptake”, `Cc1c(C)c(C)[c-](C)c1C.Cc1cccc(C)c1[N]1C(=O)c2cccc[n+]2[Ir]1[Cl]` is recorded as 105 ng/10⁶ cells (NIH3T3; ICP-MS; 10 µM, 24 h).
`Cn1c(=O)c(=O)n(C)c2cc(S(=O)(=O)Nc3ccc(S(=O)(=O)Nc4ncccn4)cc3)ccc21` gave an inhibition of 10% (hTERT-RPE1; cell viability, MTT; concentration not given).
For `COc1cccc2c1C(=O)c1c(O)c3c(c(O)c1C2=O)CC(O)(C(=O)CO)CC3OC1CC(NC(=O)C[C@H](N)C(=O)O)C(O)C(C)O1` (stereo partly drawn), the cellular uptake was ~3.5 fold (HepG2 (LAT1-positive); HPLC; serum-free medium; 2 h; relative to: doxorubicin).
The viability of `COc1ccc(-c2coc3c(CC=C(C)C)c(O)c(CC=C(C)C)c(O)c3c2=O)cc1O` is reported as 83.2% (SW480; cell growth or viability, MTT; 12.5 µg/mL).
`CC(C)c1cnn2c(NCc3ccccc3)cc(N[C@@H](CO)[C@H](O)CO)nc12` has an efflux ratio of 2.5 (Caco-2 monolayer; transwell permeability; 10 µM, added: FTC and verapamil 10 µM; relative to: Papp B-A over Papp A-B).
The IC50 of `CCCCn1cc(C(=O)O)c(=O)c2cc(F)c3[nH]nnc3c21` is reported as 74 ± 6.66 µg/mL (SW480; cell growth, SRB; 72 h).
`CCC1=C(CC)C2=[N+]3C1=Cc1c(CC)c(CC)c4[n]1[Ir-3]31([Cl])([C]#[O+])[n]3c(c(CC)c(CC)c3=CC3=[N+]1C(=C4)C(CC)=C3CC)=C2` has a cellular uptake of 34.1 ± 2.8 µg iridium/g protein (NCI-H460; ICP-MS; 1 µM, 2 h).
`O=C(O)C1OC(Oc2ccc3oc(-c4ccccc4)cc(=O)c3c2)C(O)C(O)C1O` (stereo not drawn): “intracellular glucuronide concentration” 72.7 ± 4.19 µM (HeLa-UGT1A9 cells; 15 µM aglycone loading, end of excretion).
`CCC(=O)N(C)c1ccc(Cl)c(Cl)c1`: “cells with one aberration” 0% (CHO-WBL; 0.13 mg/mL, 3 h, without S9 activation).
`O=c1[nH]cc(C(c2cccc(Cl)c2)c2c[nH]c(=O)[nH]c2=O)c(=O)[nH]1` — result for cytotoxicity: “not toxic” (Mo7e; 1 µg/mL).
`CC(=O)N[C@@H](CC(C)C)C(=O)N[C@H](C(=O)N[C@@H](Cc1ccccc1)C(=O)N[C@@H]1CSCc2ccc(cn2)-c2ccc(nc2)CSC[C@@H](C(=O)N[C@@H](CO)C(N)=O)NC(=O)[C@H](CC(C)C)NC(=O)[C@H](CCCNC(=N)N)NC(=O)[C@H](C)NC(=O)[C@H](Cc2c[nH]c3ccccc23)NC(=O)[C@H](Cc2ccc(O)cc2)NC(=O)[C@H](CCCNC(=N)N)NC1=O)[C@@H](C)O` has a viability decrease of 30% (HeLa; CellTiter-Glo; 10 µM).
`O=c1[nH]cc(C(c2ccccc2Br)c2c[nH]c(=O)[nH]c2=O)c(=O)[nH]1` — result for cytotoxicity: “not toxic” (Mo7e; 1 µg/mL).
The viability of `CC(C)=CCc1cc(-c2coc3cc(O)c(CC=C(C)C)c(O)c3c2=O)ccc1O` is reported as 33.8% (SW480; cell growth or viability, MTT; 50 µg/mL).
`O=C(CCC(=O)NCCS(=O)(=O)O)NCCNC(=O)[C@@H](Cc1ccccc1)NC(=O)[C@@H](Cc1ccccc1)NC(=O)CCNc1ccc([N+](=O)[O-])c2nonc12` gave an intracellular concentration of 0.6 mM (HeLa; 200 µM, 24 h, after one PBS wash).
`O=C1N=C(O)SC1=Cc1ccc(-c2cccc(C(F)(F)F)c2)o1`: “highest non-toxic concentration” 50 µM (IL-2 activated human PBMC; CellTiter-Glo; 48 h).
Under “intracellular glucuronide concentration”, `O=C(O)C1OC(Oc2ccccc2-c2cc(=O)c3ccccc3o2)C(O)C(O)C1O` (stereo not drawn) is recorded as 92.7 ± 11.3 µM (HeLa-UGT1A9 cells; 20 µM aglycone loading, end of excretion).
With `CC(=O)[O-].Nc1ccc(C([O-])=NN=Cc2ccc(OCC(=O)Nc3ccc(Cl)cc3)cc2)cc1.O.O.O.[Cu+2]` the IC50 was 31.4 ± 2.6 µg/mL (HeLa; cytotoxicity, MTT; 24 h).
`COc1cc2c(cc1O)[C@]1(O)C(=O)c3c(O)cc4c(c3O[C@@H]1CO2)C=CC(C)(C)O4` gave a viability of 6.03% (SW480; cell growth or viability, MTT; 100 µg/mL).
For `O=C(/C=C/c1ccccc1)c1ccccc1`, cytotoxicity read “toxic” (K562 transfected; concentration not given, added: TNF-alpha).
`CC(C)=CCc1c2c(c(O)c3c(=O)c(-c4ccc(O)cc4)coc13)CC(C(C)(C)O)O2` (stereo not drawn) gave a viability of 9.03% (SW480; cell growth or viability, MTT; 25 µg/mL).
`CC[C@H](C)[C@H](NC(=O)[C@H](Cc1c[nH]c2ccccc12)NC(=O)[C@H](CCCNC(=O)c1ccc2c(c1)C(=O)OC21c2ccc(O)cc2Oc2cc(O)ccc21)NC(=O)CNC(=O)[C@H]1CCCN1C(=O)[C@@H](NC(=O)[C@H](CCCNC(=N)N)NC(=O)[C@@H](NC(=O)[C@H](Cc1c[nH]c2ccccc12)NC(=O)[C@H](CCCNC(=N)N)NC(C)=O)C(C)C)C(C)C)C(=O)N[C@@H](CCCNC(=N)N)C(=O)N[C@@H](CCC(N)=O)C(=O)N[C@@H](CC(C)C)C(=O)N[C@@H](CCCNC(=N)N)C(=O)NCC(=O)NCC(N)=O` gave a half-saturation concentration of 68.8 µM (HeLa; peptide uptake, fluorescence microscopy; range over 80 to 160 µM, 90 min, 37 °C).
Under “intracellular glucuronide concentration”, `O=C(O)C1OC(Oc2ccc(-c3cc(=O)c4ccccc4o3)cc2)C(O)C(O)C1O` (stereo not drawn) is recorded as 72 ± 25.1 µM (HeLa-UGT1A9 cells; 20 µM aglycone loading, end of excretion).

A few entries again:
Under “intracellular glucuronide concentration”, `O=C(O)C1OC(Oc2ccc3c(=O)cc(-c4ccccc4)oc3c2)C(O)C(O)C1O` (stereo not drawn) is recorded as 142 ± 22.2 µM (HeLa-UGT1A9 cells; 15 µM aglycone loading, end of excretion).
The Papp of `Cc1cc(O)cc(O)c1C(=O)c1c2c3c(c(O)cc(C)c3oc1=O)C(=O)c1c(O)cc(O)cc1-2` is reported as 0.58 to 2.91 ×10⁻⁶ cm/s (Caco-2 monolayer; 50 to 400 µM, 180 min, pH 7.4, apical to basolateral).
